# Results of several laboratories.
# Numbered parts are unrelated; each lists some results of a single study.

# Series 1 — technique: protein-binding microarray; form: double-stranded DNA, one strand shown; matrix: in vitro; concentration: not given; reading: higher = stronger binding
# Target: Max-binding protein MNT, bHLH-zipper, MAX partner unstated (MNT, Homo sapiens, UniProt Q99583, residues 220-300)
# Notes: k-mer, scored over probes, only values ≥0.25
# Residues (chain): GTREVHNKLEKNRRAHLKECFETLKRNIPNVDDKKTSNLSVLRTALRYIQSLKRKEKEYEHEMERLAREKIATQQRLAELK
Strand,E-score
CGCACGCC,0.363
CCCTACCA,0.273
CGTGACGA,0.325
GCACGTGA,0.49
CATGGTCA,0.356
ATGTGCCC,0.336
CCCACCCA,0.378

# Series 2 — technique: Spec-seq; form: double-stranded DNA, one strand shown; matrix: in vitro; concentration: not given; notes: whole probe, mean of replicates; baseline: not given; reading: lower = stronger binding; constant ends, left off below: GAGTCGTCTCGTCAGCAC … CCGTAGAGCACTCAGGTC
# Target: Transcription factor SOX-2, HMG box (Sox2, Mus musculus, UniProt P48432, residues 41-119)
# Sequence of UniProt P48432 (41-119, looked up): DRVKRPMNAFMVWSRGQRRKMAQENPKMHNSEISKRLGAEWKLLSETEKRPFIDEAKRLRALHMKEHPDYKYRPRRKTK
Strand,relative binding energy
TTGAGTT,0.682 ln ratio
CATTGTA,-2.25 ln ratio
ATGCGTT,0.922 ln ratio
TAAAGTT,0.0519 ln ratio
CATTCAA,-1.88 ln ratio
CATCTTG,0.719 ln ratio
CTTAGTT,-0.288 ln ratio
TTAGGTT,0.629 ln ratio
TGGAGTT,1.01 ln ratio

# Series 3 — technique: RNA Bind-n-Seq; form: RNA; matrix: in vitro; concentration: 20 nM; notes: 6-mer, flanks averaged, single round; together with: 150 mM LiCl; baseline: input library; reading: higher = stronger binding
# Target: TAR DNA-binding protein 43, full length, His tag (TARDBP, Homo sapiens, UniProt Q13148, residues 1-414)
Strand,6-mer enrichment (R)
AAGACU,0.801
CUUAAC,0.861
GUGUUA,1.41
GUAUCA,0.867
CUACCA,0.857
GAUUAG,0.935
GCCUUU,1.07
AGUCUC,0.832
AGAGCU,0.929

# Mixed results
Substance,target,assay,test system,setting,scale,quantity,result
"PhoQ, residues 284 288 289 292 302 303 GASLAW","PhoP, residues 12 14 15 18 19 NQGLL (Escherichia coli, UniProt P23836)","Sort-seq, item: YFP reporter",E. coli,"PhoQ-PhoP variant library, together with: 10 µM Mg2+","baseline: high Mg2+ state, higher = stronger signaling",fold induction,2.26

# For quick reference, copied from above (series 3):
Strand,6-mer enrichment (R)
GUAUCA,0.867
CUACCA,0.857
